Assay results of several laboratories.
Each line is one published result; not all experiments were run side by side. ± marks the error that the study gave.

SMILES	assay	test system	setting	how to read	endpoint	result
C[C@@H](NC(=O)N1C(=O)[C@H](Cc2ccnc(N)c2)[C@H]1C(=O)O)C1CCCCC1		healthy adult Chinese volunteers	continuous intravenous infusion, 1.5 mg/kg/h, 5-day infusion, CTCAE 5.0 grading		incidence of serious AEs	0%
O=C(Nc1ccc2c(c1)B(O)OC2)c1ccccc1OCc1ccccc1	PAMPA		200 µM, 5 h, pH 7.4		membrane retention	17.7%
COc1ncccc1-c1cnn2ccc(N3CCN(C(=O)OC(C)C)CC3)nc12		mouse nerve ligation model, brain	oral, 10 mg/kg, 180 min after last dose, repeat dosing day 1		drug concentration	6.1 µM
CC(=O)NCC(=O)NCC(=O)N[C@H](C(=O)N[C@@H](Cc1ccc(O)cc1)C(=O)N[C@@H](CO)C(=O)N[C@H]1CSSC[C@@H](C(=O)N[C@@H](CCCNC(=N)N)C(=O)N2CCC[C@H]2C(=O)N[C@@H](CCC(N)=O)C(=O)N[C@@H](CCCNC(=N)N)C(=O)NCC(=O)NCCC(=O)N[C@@H](CCCCNC(=O)CN(CC(=O)NCCCC[C@H](NC(=O)CCNC(=O)CNC(=O)[C@H](CCCNC(=N)N)NC(=O)[C@H](CCC(N)=O)NC(=O)[C@@H]2CCCN2C(=O)[C@H](CCCNC(=N)N)NC(=O)[C@@H]2CSSC[C@H](NC(=O)[C@H](CO)NC(=O)[C@H](Cc3ccc(O)cc3)NC(=O)[C@@H](NC(=O)CNC(=O)CNC(C)=O)[C@@H](C)O)C(=O)N[C@@H](Cc3c[nH]cn3)C(=O)N[C@@H](Cc3ccccc3)C(=O)NCC(=O)N[C@@H](C)C(=O)N[C@@H](CC(C)C)C(=O)N[C@@H]([C@@H](C)O)C(=O)N[C@@H](Cc3c[nH]c4ccccc34)C(=O)N[C@@H](C(C)C)C(=O)N2)C(N)=O)C(=O)CCN)C(N)=O)NC(=O)[C@H](C(C)C)NC(=O)[C@H](Cc2c[nH]c3ccccc23)NC(=O)[C@H]([C@@H](C)O)NC(=O)[C@H](CC(C)C)NC(=O)[C@H](C)NC(=O)CNC(=O)[C@H](Cc2ccccc2)NC(=O)[C@H](Cc2c[nH]cn2)NC1=O)[C@@H](C)O	MSD immunoassay	BALB/c mice, healthy female, serum	subcutaneous, 0.08 mg/kg, 336 h, LLOQ 2.0 ng/mL		serum concentration	not detected
[O-][S+]1CCc2nc(N3CCC(c4ncc(Cl)cn4)CC3)nc(NC3(CO)CCC3)c21 (centres unmarked)	refers to: oral hypoaesthesia	healthy male humans	48 mg single dose		adverse event incidence	0%
Nc1ncnc2c1ncn2[C@@H]1O[C@@H]2COP(=O)([S-])O[C@@H]3[C@H](O)[C@@H](COP([O-])(=S)O[C@H]2[C@H]1O)O[C@H]3n1cnc2c(N)ncnc21.[Na+].[Na+] (some centres unmarked)		non-tumour-bearing mice, blood	intravenous, 1 mg/kg		serum albumin	30.1 ± 0.87 g/L
CCCC1CCC(C2CCC(c3ccc(F)c(F)c3)CC2)CC1 (centres unmarked)		rat, fetus	5000 ng/mL in perfusate, high dose, mixture of 21 LCMs		median fetal accumulation	1.24 ng/g
CC(C)[C@@H]1NC(=O)CNC(=O)[C@H](CC(N)=O)NC(=O)[C@H](CCCNC(=N)N)NC(=O)[C@H](Cc2ccc(O)cc2)NC(=O)[C@H](C(C)C)NC(=O)[C@@H](NC(=O)[C@@H](NC(=O)[C@H](CC(N)=O)NC(=O)[C@H](Cc2c[nH]c3ccccc23)NC(=O)[C@H](C)NC(=O)[C@H](Cc2ccccc2)NC(=O)CN)C(C)C)CSSC[C@@H](C(=O)N[C@@H](Cc2cnc[nH]2)C(=O)N[C@@H](CCCNC(=N)N)C(=O)N[C@@H](CCCNC(=N)N)C(=O)N[C@@H](C)C(=O)N[C@@H](CC(N)=O)C(N)=O)NC(=O)[C@H](C(C)C)NC(=O)[C@H](CCCNC(=N)N)NC1=O		ICR mouse	ip, 5 mg/kg	direction not given	lachrymation score	0
CC(=O)c1c(C)c2cnc(Nc3ccc(C4CCN(CCS(C)(=O)=O)CC4)cn3)nc2n(C2CCCC2)c1=O		human patients, plasma	oral, 100 mg twice daily, day 1 single dose, together with: fulvestrant		AUC(0-inf)	929 ng·h/mL
C[C@]12CC[C@@H]3c4ccc(O)cc4CC[C@H]3[C@@H]1CCC2=O	ultrafiltration	cow milk whey	200 nM nominal in whole milk		dose fraction in permeate	15.4%
O=C(Nc1ccccc1)C1CCN(C(=O)Oc2cccnc2)CC1	Bond-Lader VAS	healthy women	oral, 20 mg	baseline: pre-dose baseline, direction not given	change in Interested-Bored score	-3.7
CC(C)(c1ccccc1)c1cc(-n2nc3ccccc3n2)c(O)c(C(C)(C)c2ccccc2)c1		human aged 16-21 years	concentration not given, foundation, 95th percentile		daily dermal exposure dose	1.69 ng/kg/day
COc1cc2c(Oc3ccc4[nH]c(C)cc4c3F)ccnc2cc1OCC1(N)CC1		paediatric refractory sarcoma patients	10 mg		weight loss incidence	25%
NCCCC[C@@H]1NC(=O)[C@@H](Cc2c[nH]c3ccccc23)NC(=O)[C@H](c2ccccc2)NC(=O)[C@@H]2C[C@@H](OC(=O)NCCN)CN2C(=O)[C@H](Cc2ccccc2)NC(=O)[C@H](Cc2ccc(OCc3ccccc3)cc2)NC1=O		healthy human volunteers	600 µg twice daily		subjects with feeling hot	2%
CCN1[C@@H](C(=O)NC23CCC(C(=O)O)(CC2)CC3)[C@H](c2cccc(Cl)c2F)[C@]2(C(=O)Nc3cc(Cl)ccc32)C12CCCCC2		patients with advanced solid tumours	oral, 200 mg		grade ≥3 Thrombocytopenia incidence	50%
Cc1cc(C)c(CNC(=O)c2cc(Cl)c3c(c2C)O[C@@](C)([C@H]2CC[C@H](N(C)C)CC2)O3)c(=O)[nH]1		relapsed/refractory NHL patients	dose not given, trial, safety set, treatment-related TEAE grade 5		incidence of INR increased	0%
CCCCCCCCCCCCCCCC(=O)N[C@@H](CCC(=O)NCCCC[C@H](NC(=O)[C@H](CC(=O)O)NC(=O)[C@H](CO)NC(=O)[C@@H](NC(=O)[C@H](Cc1ccccc1)NC(=O)[C@@H](NC(=O)CNC(=O)[C@H](CCC(N)=O)NC(=O)[C@H](CO)NC(=O)[C@@H](N)Cc1c[nH]cn1)[C@@H](C)O)[C@@H](C)O)C(=O)N[C@@H](CO)C(=O)N[C@@H](CCC(=O)O)C(=O)N[C@@H](Cc1ccc(O)cc1)C(=O)N[C@@H](CC(C)C)C(=O)N[C@@H](CC(=O)O)C(=O)N[C@@H](CO)C(=O)N[C@@H](CCC(=O)O)C(=O)N[C@@H](CCCNC(=N)N)C(=O)N[C@@H](C)C(=O)N[C@@H](CCCNC(=N)N)C(=O)N[C@@H](CC(=O)O)C(=O)N[C@@H](Cc1ccccc1)C(=O)N[C@H](C(=O)N[C@@H](C)C(=O)N[C@@H](Cc1c[nH]c2ccccc12)C(=O)N[C@@H](CC(C)C)C(=O)N[C@@H](CCC(=O)O)C(=O)N[C@@H](C)C(=O)NCC(=O)NCC(=O)O)C(C)C)C(=O)O	refers to: decreased appetite	human, CrCl ≥90 mL/min	subcutaneous, 100 µg single dose		treatment-related adverse events	0%
O=C(O)C(O)(c1cccs1)c1cccs1	refers to: metabolite	human, plasma	oral, 10 mg once daily, 5 days, median		dose-normalised free Cmax	0.0144 (ng/mL)/mg
CCC[C@@](N)(CO)CCc1ccc(OCCCCCC(C)C)cc1		dog	oral, 5 mg/kg		AUC(0-inf)	11.3 µM·h
CO[C@H]1C[C@@H]2CC[C@@H](C)[C@@](O)(O2)C(=O)C(=O)N2CCCC[C@H]2C(=O)O[C@H]([C@H](C)C[C@@H]2CC[C@@H](OC(=O)NCCOCCOCCOCCOCCOCCOCCOCCOCCC(=O)N3CCc4cc(Cn5nc(-c6ccc7oc(N)nc7c6)c6c(N)ncnc65)ccc4C3)[C@H](OC)C2)C[C@@H](O)[C@H](C)/C=C(\C)[C@@H](O)[C@@H](OC)C(=O)[C@H](C)C[C@H](C)/C=C/C=C/C=C/1C		patients with advanced solid tumours	intravenous, dose not given, grade ≥3		incidence of Diarrhea TRAE	0%
CC(=O)c1c([O-])cc(C)oc1=O.[Na+]		Wistar rat, male, serum	oral, 200 mg/kg, no CYP inhibitor		clearance	0.983 ± 0.0833 mL/min/kg
CC(C)n1c(C2CCNCC2)nc2c([N+](=O)[O-])c(Br)c(Br)cc21		patients with AML	125 mg		AE leading to dose reduction	0%
C[C@]1(CO)Cc2ncn(-c3ccc(C#N)c(Cl)c3)c2C(=O)O1		human, plasma	0.7 mg single dose, geometric mean		AUC(0-inf)	0.12 µM·h
CN1CC[C@@H](c2c(O)cc(O)c3c(=O)cc(-c4ccc(C(F)(F)F)cc4Cl)oc23)[C@@H]1CO	refers to: Hypotension	relapsed B-cell malignancies	oral, 200 mg, grade 3-4, intermittent dosing		patients with adverse event	0%
Clc1ccc(-c2ccccc2)cc1		Sprague-Dawley rats, female, serum	inhalation, 23 µg/rat, 0 h after exposure		alkaline phosphatase	152 ± 46 U/L
CC(C)C[C@H](NC(=O)[C@H](Cc1ccccc1)NC(=O)[C@H](Cc1ccccc1)NC(=O)Cc1ccc(-c2ccccc2)cc1)C(=O)N[C@@H](CCCCN)C(=O)N[C@@H](CCCNC(=N)N)C(=O)N[C@H](C(=O)N[C@@H](Cc1c[nH]c2ccccc12)C(=O)N[C@@H](CCCCN)C(=O)N[C@@H](CCCNC(=N)N)C(=O)O)C(C)C		dog liver microsomes			intrinsic clearance	52.6 mL/min/kg
